Measured values collected from several papers.
Compare with care: the assays were run in different laboratories.

CS(=O)(=O)Nc1ncn(-c2cc(F)c(COc3ccc(OS(=O)(=O)F)cc3)c(F)c2)n1  MIC (Mycolicibacterium fortuitum): 25 µM
CC[C@H](C)[C@H](NC(=O)[C@H](CCCCN)NC(=O)[C@@H](NC(=O)[C@H](Cc1ccc(O)cc1)NC(=O)[C@H](CCCCN)NC(=O)[C@H](CCCCN)NC(=O)CNC(=O)[C@H](CCCCN)NC(=O)[C@@H](NC(=O)[C@H](C)NC(=O)[C@H](CC(C)C)NC(=O)[C@H](Cc1c[nH]c2ccccc12)NC(=O)CNC(=O)[C@@H](NC(=O)[C@H](Cc1ccccc1)NC(=O)[C@H](CCCCN)NC(=O)[C@H](CC(C)C)NC(=O)[C@H](Cc1ccccc1)NC(=O)[C@H](C)NC(=O)CNC(=O)[C@@H](N)CCSC)C(C)C)[C@@H](C)O)C(C)C)C(=O)N[C@@H](C)C(=O)N[C@@H](Cc1c[nH]c2ccccc12)C(=O)N[C@@H](CC(=O)O)C(=O)N[C@@H](Cc1c[nH]cn1)C(=O)N[C@@H](CCCCN)C(=O)NCC(=O)N[C@H](C(=O)N[C@H](C(=O)N[C@@H](CCSC)C(=O)N[C@@H](CCCCN)C(=O)N[C@@H](Cc1c[nH]c2ccccc12)C(=O)N[C@@H](CC(C)C)C(=O)N[C@@H](CC(N)=O)C(=O)N[C@@H](C)C(=O)NCC(=O)N[C@@H](CCC(N)=O)C(=O)N[C@H](C(=O)N[C@@H](Cc1ccccc1)C(=O)N[C@H](C(=O)N[C@@H](Cc1c[nH]c2ccccc12)C(=O)N[C@H](C(=O)N[C@@H](Cc1ccc(O)cc1)C(=O)N[C@@H](CCC(=O)O)C(=O)N[C@@H](CCC(N)=O)C(=O)N[C@H](C(=O)N[C@@H](CCCCN)C(=O)N[C@@H](CCCCN)C(=O)N[C@@H](CC(C)C)C(=O)N[C@@H](Cc1c[nH]c2ccccc12)C(=O)N[C@H](C(=O)O)[C@@H](C)O)[C@@H](C)CC)C(C)C)[C@@H](C)O)[C@@H](C)O)[C@@H](C)CC)[C@@H](C)O  MIC (Kocuria rhizophila; broth microdilution; CECT 241; 37 °C): 2 µg/mL
CC(C)(C)OCC1NC(=O)C(C(=O)NC(C(=O)NC2C(=O)N3C2SC(C)(C)C3C(=O)O)c2ccccc2)=C1O (centres unmarked)  MIC (Escherichia coli; broth microdilution; isolate IU 356 A, KPC-3, VIM-1, TEM; together with: clavulanic acid 6 µg/mL): > 200 µg/mL
O=C(O)CNC(=O)CO/N=c1\cc2n(-c3ccc(Cl)cc3)c3ccccc3nc-2cc1Nc1ccc(Cl)cc1  MIC (Neisseria gonorrhoeae; bacterial growth; 1130991, multidrug-resistant; 24 h): 3.75 µM
Cc1c2ccncc2c(C)c2c1[nH]c1ccccc12  MIC (Candidozyma auris; inhibitor; 279; 24 h): 128 µg/mL
CC[C@H](C)[C@H](NC(=O)[C@H](CCCNC(=N)N)NC(=O)[C@H](Cc1c[nH]c2ccccc12)NC(=O)[C@H](CCCNC(=N)N)NC(=O)[C@H](Cc1c[nH]c2ccccc12)NC(=O)[C@H](Cc1c[nH]c2ccccc12)NC(=O)[C@H](Cc1c[nH]c2ccccc12)NC(=O)[C@H](CCCNC(=N)N)NC(=O)[C@H](Cc1c[nH]c2ccccc12)NC(=O)[C@H](CCCNC(=N)N)NC(=O)CN)C(N)=O  MIC (Candida albicans; broth microdilution; CGMCC 2.209, RPMI 1640-MOPS; 48 h, 30 °C): 8 µM
CC1(C)SC2C(NC(=O)C(NC(=O)C3=C(O)C(c4ccccc4)NC3=O)c3ccccc3)C(=O)N2C1C(=O)O (centres unmarked)  MIC (Escherichia coli; broth microdilution; isolate IU, CTX-M-14, TEM-1; together with: clavulanic acid 6 µg/mL): > 200 µg/mL
N=C(N)NCCC[C@H](NC(=O)CN)C(=O)N[C@@H](Cc1c[nH]c2ccccc12)C(=O)N[C@@H](CCCNC(=N)N)C(=O)N[C@@H](Cc1c[nH]c2ccccc12)C(=O)N[C@@H](Cc1c[nH]c2ccccc12)C(=O)N[C@@H](Cc1c[nH]c2ccccc12)C(=O)N[C@@H](CCCNC(=N)N)C(=O)N[C@@H](Cc1c[nH]c2ccccc12)C(=O)N[C@@H](CCCNC(=N)N)C(=O)N[C@@H](Cc1c[nH]c2ccccc12)C(N)=O  MIC (Candida albicans; broth microdilution; SP3876, RPMI 1640-MOPS; 48 h, 30 °C): 16 µM
CC(C)C[C@@H](NC(=O)[C@H](C)NC(=O)CNC(=O)[C@@H](NC=O)C(C)C)C(=O)N[C@@H](C)C(=O)N[C@@H](C(=O)N[C@H](C(=O)N[C@@H](C(=O)N[C@@H](Cc1c[nH]c2ccccc12)C(=O)N[C@H](CC(C)C)C(=O)N[C@@H](Cc1ccc2[nH]ccc2c1)C(=O)N[C@H](CC(C)C)C(=O)N[C@@H](Cc1c[nH]c2ccccc12)C(=O)N[C@H](CC(C)C)C(=O)N[C@@H](Cc1c[nH]c2ccccc12)C(=O)NCCO)C(C)C)C(C)C)C(C)C  MIC (Streptococcus agalactiae; broth microdilution; JCM 5671): 0.53 µM
N=C(N)c1ccc(OCc2ccc(Br)cc2COc2ccc(C(=N)N)cc2)cc1  MIC (Escherichia coli; mcr-1; 20 h, compound alone): > 100 µg/mL
CO/N=c1\cc2n(-c3ccc(Cl)cc3)c3ccccc3nc-2cc1Nc1ccc(Cl)cc1  MIC (Neisseria gonorrhoeae; bacterial growth; 1130991, multidrug-resistant; 24 h): 0.94 µM
CC(C)C[C@H](NC(=O)[C@H](CCCNC(=N)N)NC(=O)[C@H](Cc1c[nH]c2ccccc12)NC(=O)[C@H](CCCNC(=N)N)NC(=O)[C@H](Cc1c[nH]c2ccccc12)NC(=O)[C@H](Cc1c[nH]c2ccccc12)NC(=O)[C@H](Cc1c[nH]c2ccccc12)NC(=O)[C@H](CCCNC(=N)N)NC(=O)[C@H](Cc1c[nH]c2ccccc12)NC(=O)[C@H](CCCNC(=N)N)NC(=O)CN)C(N)=O  MIC (Candida albicans; CGMCC 2.209; no added salts): 32 µM
CC(C)CC1NC(=O)C(C(=O)NC(C(=O)NC2C(=O)N3C2SC(C)(C)C3C(=O)O)c2ccccc2)=C1O (centres unmarked)  MIC (Escherichia coli; broth microdilution; isolate IU 356 A, KPC-3, VIM-1, TEM; together with: clavulanic acid 6 µg/mL): > 200 µg/mL
N=C(N)NCCC[C@H](NC(=O)[C@H](Cc1c[nH]c2ccccc12)NC(=O)[C@H](CCCNC(=N)N)NC(=O)[C@H](Cc1c[nH]c2ccccc12)NC(=O)[C@H](Cc1c[nH]c2ccccc12)NC(=O)[C@H](Cc1c[nH]c2ccccc12)NC(=O)[C@H](CCCNC(=N)N)NC(=O)[C@H](Cc1c[nH]c2ccccc12)NC(=O)[C@H](CCCNC(=N)N)NC(=O)CN)C(N)=O  MIC (Candida albicans; broth microdilution; SP3931, RPMI 1640-MOPS; 48 h, 30 °C): 4 µM
CC1(C)SC2C(NC(=O)C(NC(=O)C3=C(O)C(Cc4ccco4)NC3=O)c3ccccc3)C(=O)N2C1C(=O)O (centres unmarked)  MIC (Escherichia coli; broth microdilution; isolate IU 356 A, KPC-3, VIM-1, TEM; no clavulanic acid): > 200 µg/mL
C[C@@H](O)[C@H]1C(=O)N2C(C(=O)O)=C(SCCN=CN)C[C@H]12  MIC (Klebsiella pneumoniae; K3; at emergence of KPC-144, together with: ceftazidime-avibactam 4/1): 32 µg/mL
N=C(N)NCCC[C@H](NC(=O)[C@H](Cc1c[nH]c2ccccc12)NC(=O)[C@H](CCCNC(=N)N)NC(=O)[C@H](Cc1c[nH]c2ccccc12)NC(=O)[C@H](Cc1c[nH]c2ccccc12)NC(=O)[C@H](Cc1c[nH]c2ccccc12)NC(=O)[C@H](CCCNC(=N)N)NC(=O)[C@H](Cc1c[nH]c2ccccc12)NC(=O)[C@@H](N)CCCNC(=N)N)C(=O)N[C@@H](Cc1c[nH]c2ccccc12)C(N)=O  MIC (Candida tropicalis; broth microdilution; CGMCC 2.192, RPMI 1640-MOPS; 48 h, 30 °C): 4 µM
CC[C@H](C)[C@H](NC(=O)[C@H](CC(C)C)NC(=O)[C@@H]1CCCN1C(=O)[C@@H](N)CC(C)C)C(=O)N[C@H](C(=O)N[C@@H](Cc1ccccc1)C(=O)N[C@@H](CC(C)C)C(=O)N[C@@H](CCCNC(=N)N)C(=O)N[C@@H](CC(N)=O)C(=O)N[C@@H](CCCNC(=N)N)C(=O)N[C@@H](CC(C)C)C(=O)N[C@@H](CCCCN)C(=O)N[C@@H](Cc1ccc(O)cc1)C(=O)O)[C@@H](C)CC  MIC (Micrococcus luteus; NCTC 2665): 25 µg/mL
CC(C)[C@H](NC(=O)[C@H](CCCNC(=N)N)NC(=O)[C@H](Cc1c[nH]c2ccccc12)NC(=O)[C@H](CCCNC(=N)N)NC(=O)[C@H](Cc1c[nH]c2ccccc12)NC(=O)[C@H](Cc1c[nH]c2ccccc12)NC(=O)[C@H](Cc1c[nH]c2ccccc12)NC(=O)[C@H](CCCNC(=N)N)NC(=O)[C@H](Cc1c[nH]c2ccccc12)NC(=O)[C@@H](N)CCCNC(=N)N)C(N)=O  MIC (Candida albicans; broth microdilution; SP3902, RPMI 1640-MOPS; 48 h, 30 °C): 16 µM
C[C@H](NC(=O)CO/N=c1\cc2n(-c3ccc(Cl)cc3)c3ccccc3nc-2cc1Nc1ccc(Cl)cc1)C(=O)OC(C)(C)C  MIC (Neisseria gonorrhoeae; bacterial growth; 1130991, multidrug-resistant; 24 h): > 30 µM
CC1(C)SC2C(NC(=O)C(NC(=O)C3=C(O)CN(c4ccccc4)C3=O)c3ccccc3)C(=O)N2C1C(=O)O (centres unmarked)  MIC (Escherichia coli; broth microdilution; isolate IU 356 A, KPC-3, VIM-1, TEM; together with: clavulanic acid 6 µg/mL): > 200 µg/mL
CC(C)/N=c1\cc2n(-c3ccc(Cl)cc3)c3ccccc3nc-2cc1Nc1ccc(Cl)cc1  MIC (Neisseria gonorrhoeae; bacterial growth; 700825, streptomycin-resistant; 24 h): 0.94 µM
CC[C@H](C)[C@H](NC(=O)[C@H](CCCNC(=N)N)NC(=O)[C@H](Cc1c[nH]c2ccccc12)NC(=O)[C@H](CCCNC(=N)N)NC(=O)[C@H](Cc1c[nH]c2ccccc12)NC(=O)[C@H](Cc1c[nH]c2ccccc12)NC(=O)[C@H](Cc1c[nH]c2ccccc12)NC(=O)[C@H](CCCNC(=N)N)NC(=O)[C@H](Cc1c[nH]c2ccccc12)NC(=O)[C@@H](N)CCCNC(=N)N)C(N)=O  MIC (Candida albicans; CGMCC 2.209; no added salts): 16 µM
CC1NC(=O)C(C(=O)NC(C(=O)NC2C(=O)N3C2SC(C)(C)C3C(=O)O)c2ccccc2)=C1O (centres unmarked)  MIC (Escherichia coli; broth microdilution; JW0790-2 fiu deletion mutant; ferric iron uptake gene): 100 µg/mL
C[C@H](NC(=O)[C@H](CCCNC(=N)N)NC(=O)[C@H](Cc1c[nH]c2ccccc12)NC(=O)[C@H](CCCNC(=N)N)NC(=O)[C@H](Cc1c[nH]c2ccccc12)NC(=O)[C@H](Cc1c[nH]c2ccccc12)NC(=O)[C@H](Cc1c[nH]c2ccccc12)NC(=O)[C@H](CCCNC(=N)N)NC(=O)[C@H](Cc1c[nH]c2ccccc12)NC(=O)[C@@H](N)CCCNC(=N)N)C(N)=O  MIC (Candida albicans; broth microdilution; CGMCC 2.209, RPMI 1640-MOPS; 48 h, 30 °C, together with: NaCl 150 mM): 16 µM
CSCC[C@H](NC(=O)[C@H](CC(C)C)NC(=O)[C@@H](NC(=O)[C@H](Cc1ccccc1)NC(=O)[C@H](CCCCN)NC(=O)[C@H](CCCNC(=N)N)NC(=O)[C@@H](NC(=O)[C@H](Cc1ccc(O)cc1)NC(=O)[C@H](CCCNC(=N)N)NC(=O)[C@@H](N)CCCNC(=N)N)C(C)C)C(C)C)C(=O)N[C@@H](CCCNC(=N)N)C(=O)O  MIC (Micrococcus luteus; NCTC 2665): 50 µg/mL

Some of these lines once more:
C[C@H](NC(=O)CO/N=c1\cc2n(-c3ccc(Cl)cc3)c3ccccc3nc-2cc1Nc1ccc(Cl)cc1)C(=O)OC(C)(C)C  MIC (Neisseria gonorrhoeae; bacterial growth; 1130991, multidrug-resistant; 24 h): > 30 µM
CC1(C)SC2C(NC(=O)C(NC(=O)C3=C(O)CN(c4ccccc4)C3=O)c3ccccc3)C(=O)N2C1C(=O)O (centres unmarked)  MIC (Escherichia coli; broth microdilution; isolate IU 356 A, KPC-3, VIM-1, TEM; together with: clavulanic acid 6 µg/mL): > 200 µg/mL
